{"data": "Assay results collected from several papers", "note": "A part holds a random share of what one study measured."}
{"data": "Series 1", "target": "Replicase polyprotein 1ab, nsp13 helicase (rep, Severe acute respiratory syndrome coronavirus 2, UniProt P0DTD1)", "action": "inhibitor", "concentration": "20 µM"}
{"Compound": "CC(C)c1ccccc1Cc1cc(C(=O)Nc2ccc(S(=O)(=O)c3ccccc3C(C)(C)C)cc2)c(O)c(O)c1O", "inhibition": "3.76%"}
{"Compound": "Cc1ccc(-c2ncn(-c3ccc(Nc4nccc(-c5cccc(N6CCOCC6)c5)n4)cc3)n2)cn1", "inhibition": "3.63%"}
{"Compound": "C[C@H](N)C(=O)NCC(=O)N[C@H]1CSSC[C@@H](C(=O)O)NC(=O)[C@H](CO)NC(=O)[C@H]([C@@H](C)O)NC(=O)[C@H](Cc2ccccc2)NC(=O)[C@H]([C@@H](C)O)NC(=O)[C@H](CCCCN)NC(=O)[C@H](Cc2c[nH]c3ccccc23)NC(=O)[C@H](Cc2ccccc2)NC(=O)[C@H](Cc2ccccc2)NC(=O)[C@H](CC(N)=O)NC(=O)[C@H](CCCCN)NC1=O", "inhibition": "9.57%"}
{"Compound": "NS(=O)(=O)Cc1noc2ccccc12", "inhibition": "0.73%"}
{"Compound": "O=C(N[C@@H](Cc1c[nH]c2ccccc12)C(=O)O)c1ccc(Cl)cc1", "inhibition": "4.12%"}
{"Compound": "CCCCc1nc2cc(/C=C/C(=O)NO)ccc2n1CCN(CC)CC", "inhibition": "-1.31%"}
{"Compound": "COc1ccc(Oc2c(Cl)cnn(C3c4ccccc4-c4ccccc43)c2=O)cc1", "inhibition": "8.29%"}
{"Compound": "Cc1ccc(Nc2ncc3c(n2)N(C)C(=O)N(c2cc(NC(=O)c4cccc(C(F)(F)F)c4)ccc2C)C3)cn1", "inhibition": "-1.44%"}
{"Compound": "CC(C)(C)NCC(O)c1ccc(O)cc1Cl (centres unmarked)", "inhibition": "2.39%"}
{"Compound": "C=C(C)CN1CC[C@]23c4c5ccc(O)c4O[C@H]2c2[nH]c4ccccc4c2C[C@@]3(O)C1C5", "inhibition": "3.88%"}
{"Compound": "O=C(Oc1ccccc1C(=O)O)c1ccccc1O", "inhibition": "3.82%"}
{"Compound": "CCOC(=O)c1ccc(N)cc1", "inhibition": "-1.1%"}
{"Compound": "C[N+]1([O-])[C@@H]2C[C@@H](OC(=O)[C@H](CO)c3ccccc3)C[C@H]1[C@@H]1O[C@@H]12 (some centres unmarked)", "inhibition": "6.36%"}
{"Compound": "COc1ccc(-c2ccc3c(N4CCOC[C@@H]4C)nc(N4CCOC[C@@H]4C)nc3n2)cc1CO", "inhibition": "1.11%"}
{"Compound": "CCCCOC(=O)c1ccccc1Nc1cccc(C(F)(F)F)c1", "inhibition": "0.12%"}
{"Compound": "CCN1C[C@]2(COC(=O)c3ccccc3N3C(=O)C[C@H](C)C3=O)CC[C@H](OC)[C@@]34[C@@H]5C[C@H]6[C@H](OC)[C@@H]5[C@](O)(C[C@@H]6OC)[C@@](O)([C@@H](OC)[C@H]23)[C@@H]14", "inhibition": "2.26%"}
{"Compound": "CNC(=O)c1cccc(NC(=O)N2CCC(Oc3ccccc3Cl)CC2)c1", "inhibition": "6.22%"}
{"Compound": "CC1(N2CCC(n3c([C@@H]4CCCNC4)nc4ccccc43)CC2)CCCCCCC1", "inhibition": "1.89%"}
{"Compound": "c1ccc(-c2n[nH]c3c2oc2ccccc23)cc1", "inhibition": "5.67%"}
{"Compound": "CN(C)C(=O)[C@H](O)[C@H](Cc1ccccc1)NC(=O)c1cc2cc(Cl)ccc2[nH]1", "inhibition": "-6.14%"}
{"Compound": "O=C1OC2(c3cc(I)c(O)c(I)c3Oc3c2cc(I)c(O)c3I)c2c(Cl)c(Cl)c(Cl)c(Cl)c21", "inhibition": "-2.61%"}
{"Compound": "Nc1nccc(Oc2ccc(NC(=O)c3cn(COP(=O)(O)O)cc(-c4ccc(F)cc4)c3=O)cc2F)c1Cl", "inhibition": "7.8%"}
{"Compound": "Cc1nccn1CCC(C(N)=O)(c1ccccc1)c1ccccc1", "inhibition": "4.34%"}
{"data": "Series 2", "target": "Replicase polyprotein 1ab, main protease (rep, Severe acute respiratory syndrome coronavirus 2, UniProt P0DTD1)", "effect on": "enzyme activity", "action": "inhibitor", "concentration": "20 µM", "setting": "hit confirmation, no DTT"}
{"SMILES": "O=C(O)[C@H]1O[C@@H](Oc2cc3oc(-c4ccccc4)cc(=O)c3c(O)c2O)[C@H](O)[C@@H](O)[C@@H]1O", "inhibition [%]": 54}
{"SMILES": "C[n+]1c2cc(N)ccc2cc2ccc(N)cc21", "inhibition [%]": 82.1}
{"SMILES": "CNc1nc(Nc2cn(C(C)(C)C#N)nc2C)ncc1C(F)(F)F", "inhibition [%]": 70.9}
{"SMILES": "C[C@@H]1O[C@@H](O[C@@H]2[C@@H](O)[C@H](OCCc3ccc(O)c(O)c3)O[C@H](CO)[C@H]2OC(=O)/C=C/c2ccc(O)c(O)c2)[C@H](O)[C@H](O)[C@H]1O", "inhibition [%]": 95.4}
{"data": "Series 3", "target": "RNA binding protein fox-1 homolog 2, RRM domain, GST-SBP tag (RBFOX2, Homo sapiens, UniProt O43251-10, residues 100-194)", "technique": "RNA Bind-n-Seq", "form": "RNA", "matrix": "in vitro", "concentration": "365 nM", "setting": "natural RNA segment, single round, ends assumed", "reference": "no-protein control", "direction": "higher = stronger binding", "constant ends, left off below": "GGGAGUUCUACAGUCCGACGAUC … UGGAAUUCUCGGGUGCCAA", "Residues (chain)": "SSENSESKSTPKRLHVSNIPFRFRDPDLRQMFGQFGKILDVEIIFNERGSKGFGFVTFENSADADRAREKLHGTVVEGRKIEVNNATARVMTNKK"}
{"Strand": "UGUUCUAACCCCCACCCCCACUGCCAGGUAUGGGCCAGCAGUUUCCUGCCAGAUAUUGCCCAGCGUGAGGAGCGAUCUCAGCAGGCCUAUAAGAGUCAGCAUGGAGAGCC", "RBNS enrichment (R)": 2.01}
{"Strand": "UCUGUUUUAAACAGUAGUAAAAAACUGGCGUUCAAGGCAGAGUCCACAGGUGCUUAAAGGACACUUUCAGAAGAAGCUGAAGGCCUUGAGGUCUGCCCACCCAGCUGAUC", "RBNS enrichment (R)": 0.213}
{"Strand": "GACAGAAUGUCAUUCUCCUUCAGUUGCUGCCAUUUUAUCUCCUCCUGAAAGCUAAAGGCUCACCACUUGAUGGUGCCUAAAGUGGGUCGGUUACCCGAGUGAGCGGCUGC", "RBNS enrichment (R)": 0.324}
{"Strand": "GGGAGAUGGAUUAAUGUGAGUAACAGGAAUGUGUCUUUAAAAAGCUAGAGUGGUUACAUUUAAUCAGGCAGUAAGAUAAUUUGGGUUCUUGAGUUGUUUUGGAGUAAUAU", "RBNS enrichment (R)": 1.77}
{"Strand": "UAGACUUUUGAAGUGUUUGUGUUUUAAUUUAAUAUGUUUAUAAGCAUGUAUAAACAUUUAGCAUAUUUUUAUCAUAGGUCUAAAAAUAUUUGUUUACUAAAUACCUGUGA", "RBNS enrichment (R)": 57.4}
{"Strand": "AAUAUGUUAAGAUCUAUGGAUAUUCUGUAGCAAGAGAAAAUAUCUUUGCCUUAACUCCACUGCUGUGGUUGUUCCUUGGACCUGACCGAUGCUCAUACAAUAAUCUCAAG", "RBNS enrichment (R)": 0.82}
{"Strand": "UCAUUUUUUUCAAGUUCUCUCAAGUGUCCCAAAUCAGGGUAGCAAUCUUGUUGCCACAUGUGCAGCAAACAAAGUGGAAGUAUAGAUCUUCUUCUCCCUUAGGGAGGCUC", "RBNS enrichment (R)": 0.387}
{"Strand": "AAAUGACCUCUUCCCCAGACCAGGACUGGGGCUUUACCCCAGAGCCUCGCCUCGCCGCCGUGAGCAGGCAGAGGAUUUGCACACGCCGAGCAGGGAAUGGCUUUCUUGGC", "RBNS enrichment (R)": 0.324}
{"data": "Series 4", "cell line": "HEK-293T/ACE2", "effect on": "pseudovirus infection", "organism": "VSV pseudotyped with SARS-CoV-2 spike", "concentration": "concentration not given", "reference": "vehicle-treated"}
{"Compound": "COS(=O)(=O)[O-].C[N+]1(C)CCC(=C(c2ccccc2)c2ccccc2)CC1", "GFP-positive cells": "65.4%"}
{"Compound": "COCCc1ccc(OCC(O)CNC(C)C)cc1.COCCc1ccc(OCC(O)CNC(C)C)cc1.O=C(O)CCC(=O)O (centres unmarked)", "GFP-positive cells": "97%"}
{"Compound": "CS(=O)(=O)c1ccc(C(=O)Nc2ccc(Cl)c(-c3ccccn3)c2)c(Cl)c1", "GFP-positive cells": "18.9%"}
{"Compound": "C[C@@H](O)[C@@H]1NC(=O)[C@H](CCCCN)NC(=O)[C@@H](Cc2c[nH]c3ccccc23)NC(=O)[C@H](Cc2ccccc2)NC(=O)[C@@H](NC(=O)[C@H](N)Cc2ccccc2)CSSC[C@@H](C(=O)N[C@H](CO)[C@@H](C)O)NC1=O", "GFP-positive cells": "83.8%"}
{"data": "Series 5", "target": "Ras GTPase-activating protein-binding protein 1, full length (G3BP1, Homo sapiens, UniProt Q13283)", "technique": "RNA Bind-n-Seq", "form": "RNA", "matrix": "in vitro", "concentration": "200 nM", "setting": "whole 134-nt RNA, ends assumed", "with": "150 mM LiCl", "reference": "input library", "direction": "higher = stronger binding", "library": "7-deaza-guanosine replaces G", "constant ends, left off below": "GGGAGUUCUACAGUCCGACGAUC … UGGAAUUCUCGGGUGUCAAGG", "sequence of UniProt Q13283 (whole entry, looked up)": "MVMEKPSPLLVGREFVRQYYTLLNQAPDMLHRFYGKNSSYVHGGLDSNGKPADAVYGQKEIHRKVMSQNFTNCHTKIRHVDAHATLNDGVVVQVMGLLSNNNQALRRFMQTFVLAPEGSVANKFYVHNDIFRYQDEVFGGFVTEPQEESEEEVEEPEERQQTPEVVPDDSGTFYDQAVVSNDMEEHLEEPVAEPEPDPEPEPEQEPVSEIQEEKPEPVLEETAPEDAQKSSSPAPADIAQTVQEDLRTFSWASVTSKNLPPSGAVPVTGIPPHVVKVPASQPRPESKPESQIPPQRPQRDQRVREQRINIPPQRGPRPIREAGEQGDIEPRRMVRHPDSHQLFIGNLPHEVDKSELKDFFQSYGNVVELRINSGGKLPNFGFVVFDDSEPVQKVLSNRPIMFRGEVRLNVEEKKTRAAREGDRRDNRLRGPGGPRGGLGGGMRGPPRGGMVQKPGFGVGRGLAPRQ"}
{"Strand": "UGGCCCUGGUGGCAUGCGGGGAGGAAGAGGUGGCCUCAUGGAUCGUGGUGGUCCCGGUGGAAUGUUCAGAGGUGGCCGUGGUGGAGACAC", "log2 enrichment": 0.662}
{"Strand": "CACAGACAACACGCACCCGCACAGACACAGAGGGAAGGGGUUGGGAUGGGGACAGGGUGCACAGCAGGGCGGGGUAGGACCCCAGCCCCU", "log2 enrichment": 0.217}
{"Strand": "AGGGAGGUGGAUUUUGUUUAUUUUUUUAGCUCAUUUCCAGGGGUGGGAAUUUUUUUUUAAUAUGUGUCAUGAAUAAAGUUGUUUUUGAAA", "log2 enrichment": 0.34}
{"Strand": "CAAGUCCUGUGCUACACAUCGUAUGUACCGAAUCGGCCCCGGCCCCGGGCCCCGGAAAGUAUUAUGUUACGCCGUUCGGAUCUGCACUUC", "log2 enrichment": -1.22}
{"Strand": "GUCCUGUGCUACACAUCGUAUGUACCGAAUCGGGGUUUUUGGGUUUUUGGUUUUUGGGGAAAGUAUUAUGUUACGCCGUUCGGAUCUGCA", "log2 enrichment": -0.927}
{"Strand": "UGCCGAUUCGGAAGUCCUUGAGGAGCGUCAGAAGCGGCUUCCCUACGUCCCAGAGCCCUAUUACCCGGAAUCUGGAUGGGACCGCCUCCG", "log2 enrichment": -0.961}
{"Strand": "AGUCCUGUGCUACACAUCGUAUGUACCGAAUCGGGGUUUUGGUUUUGGGUUUUGGGGAAAGUAUUAUGUUACGCCGUUCGGAUCUGCACU", "log2 enrichment": -0.119}
{"Strand": "GCAGGAAGUAAAAACAAAUGGAAAUGCUUCGGAUAGUGGCAGGGGUGGGGGUUAAAAAGGAAAGGGUGGGAUGGGAGUGGGUAAAGAGUU", "log2 enrichment": 0.473}
{"note": "A few entries again (series 3):"}
{"Strand": "UGUUCUAACCCCCACCCCCACUGCCAGGUAUGGGCCAGCAGUUUCCUGCCAGAUAUUGCCCAGCGUGAGGAGCGAUCUCAGCAGGCCUAUAAGAGUCAGCAUGGAGAGCC", "RBNS enrichment (R)": 2.01}
{"Strand": "GGGAGAUGGAUUAAUGUGAGUAACAGGAAUGUGUCUUUAAAAAGCUAGAGUGGUUACAUUUAAUCAGGCAGUAAGAUAAUUUGGGUUCUUGAGUUGUUUUGGAGUAAUAU", "RBNS enrichment (R)": 1.77}
{"Strand": "AAUAUGUUAAGAUCUAUGGAUAUUCUGUAGCAAGAGAAAAUAUCUUUGCCUUAACUCCACUGCUGUGGUUGUUCCUUGGACCUGACCGAUGCUCAUACAAUAAUCUCAAG", "RBNS enrichment (R)": 0.82}
{"Strand": "UAGACUUUUGAAGUGUUUGUGUUUUAAUUUAAUAUGUUUAUAAGCAUGUAUAAACAUUUAGCAUAUUUUUAUCAUAGGUCUAAAAAUAUUUGUUUACUAAAUACCUGUGA", "RBNS enrichment (R)": 57.4}
